# Experimental data gathered from unrelated publications.
# A part holds a random share of what one study measured. Changes are numbered by the printed parent chain.

# Set 1 — technique: universal PBM; molecule type: double-stranded DNA, one strand shown; sample: in vitro; tested at: 600 nM; direction: higher = stronger binding
# Target: Sal-like protein 4, full length isoform A (SALL4, Homo sapiens, UniProt Q9UJQ4, residues 1-1053)
# UniProt Q9UJQ4, sequence (whole entry, looked up): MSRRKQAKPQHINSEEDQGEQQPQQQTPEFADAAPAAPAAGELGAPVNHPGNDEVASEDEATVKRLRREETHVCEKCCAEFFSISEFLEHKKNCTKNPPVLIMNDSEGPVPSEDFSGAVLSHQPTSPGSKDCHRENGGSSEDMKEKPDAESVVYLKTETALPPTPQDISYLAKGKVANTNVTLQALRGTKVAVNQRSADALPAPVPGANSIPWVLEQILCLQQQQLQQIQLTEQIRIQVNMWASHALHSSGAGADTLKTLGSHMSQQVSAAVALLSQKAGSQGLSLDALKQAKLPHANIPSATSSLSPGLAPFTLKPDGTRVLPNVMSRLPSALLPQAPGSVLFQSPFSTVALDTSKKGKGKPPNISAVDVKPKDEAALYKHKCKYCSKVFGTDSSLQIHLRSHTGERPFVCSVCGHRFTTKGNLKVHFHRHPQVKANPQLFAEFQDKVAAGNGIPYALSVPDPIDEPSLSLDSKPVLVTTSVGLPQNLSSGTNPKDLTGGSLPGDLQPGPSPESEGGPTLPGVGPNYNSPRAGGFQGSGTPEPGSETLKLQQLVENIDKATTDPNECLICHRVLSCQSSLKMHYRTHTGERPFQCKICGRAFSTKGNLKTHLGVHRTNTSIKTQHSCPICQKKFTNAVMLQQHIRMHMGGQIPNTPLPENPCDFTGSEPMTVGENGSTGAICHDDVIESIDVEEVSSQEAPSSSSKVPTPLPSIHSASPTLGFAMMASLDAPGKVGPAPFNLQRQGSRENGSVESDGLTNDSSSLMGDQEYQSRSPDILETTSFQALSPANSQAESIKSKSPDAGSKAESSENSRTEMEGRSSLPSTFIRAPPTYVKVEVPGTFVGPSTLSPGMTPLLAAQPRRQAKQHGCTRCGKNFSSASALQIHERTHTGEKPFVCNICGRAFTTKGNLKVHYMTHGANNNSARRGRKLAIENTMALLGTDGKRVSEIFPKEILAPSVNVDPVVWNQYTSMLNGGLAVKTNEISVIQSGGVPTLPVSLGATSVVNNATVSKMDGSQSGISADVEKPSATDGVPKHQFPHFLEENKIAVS
# Setting: 8-mer, flanks averaged, mean of replicates
Sequence,E-score
ACGGAGGA,-0.124
ATTCGGGA,-0.0416
AGTTGTGC,-0.12
TGCACAAA,0.198
AGTCATAA,0.371
CATCGTCA,0.0587
ATTAGCCA,0.112

# Set 2 — technique: DHFR PCA, deep sequencing; sample: yeast; together with: (+)-ABA 1.4 µM; baseline: wild-type fitted maximum; direction: higher = stronger binding
# Target: ABI1, truncated, D143A, DHFR fusion (Arabidopsis thaliana)
# Setting: methotrexate growth selection, single substitutions
# Starting sequence: PYL1, truncated, DHFR fusion (Arabidopsis thaliana); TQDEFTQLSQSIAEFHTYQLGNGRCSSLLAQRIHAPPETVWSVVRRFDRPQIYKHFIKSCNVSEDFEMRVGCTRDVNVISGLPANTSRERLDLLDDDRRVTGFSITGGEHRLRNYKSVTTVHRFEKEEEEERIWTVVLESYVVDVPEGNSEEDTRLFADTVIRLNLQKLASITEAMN; partner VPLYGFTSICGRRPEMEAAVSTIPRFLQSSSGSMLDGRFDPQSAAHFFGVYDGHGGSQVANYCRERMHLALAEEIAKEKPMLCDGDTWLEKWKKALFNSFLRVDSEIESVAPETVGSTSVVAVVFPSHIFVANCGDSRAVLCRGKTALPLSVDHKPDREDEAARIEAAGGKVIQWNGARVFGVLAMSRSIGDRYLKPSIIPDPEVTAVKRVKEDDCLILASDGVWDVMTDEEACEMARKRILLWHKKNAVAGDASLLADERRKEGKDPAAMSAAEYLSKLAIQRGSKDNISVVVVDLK
Substitution,relative binding score [%]
T73R,19.4
R111Y,4.48
T6W,47.1
D159C,-16
L94V,7.76
P37Q,2.13

# Set 3 — target: CCND3, cyclin fold, Cln2 fusion (human); technique: yeast growth competition, sequencing; sample: yeast; setting: weak parent motif; baseline: not given; direction: higher = stronger binding
# Starting sequence: CDKN1A docking peptide (human); SKACRRLFGPVDS; partner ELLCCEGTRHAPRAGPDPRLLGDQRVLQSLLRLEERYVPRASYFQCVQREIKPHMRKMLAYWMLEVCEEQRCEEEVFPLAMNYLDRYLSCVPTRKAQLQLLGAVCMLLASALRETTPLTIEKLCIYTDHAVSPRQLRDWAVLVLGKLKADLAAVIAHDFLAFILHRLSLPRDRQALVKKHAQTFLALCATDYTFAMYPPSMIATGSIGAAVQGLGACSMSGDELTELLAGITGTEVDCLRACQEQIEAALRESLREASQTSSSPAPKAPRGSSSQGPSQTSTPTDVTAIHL
Substitution,normalised enrichment score
P10W,0.125
P10G,0.404
F8A,0.239
A3E,0.39
F8M,0.00926
P10I,0.814
R6F,0.207
L7G,0.112
L7Q,0.222

# Further values, each from its own experiment
Substance,target,test,test system,setting,how to read,measurement,value
"PhoQ, residues 284 288 289 292 302 303 DDMDFR","PhoP, residues 12 14 15 18 19 SQCLL (Escherichia coli, UniProt P23836)","Sort-seq, refers to: YFP reporter",E. coli,"PhoQ-PhoP variant library, together with: 10 µM Mg2+","baseline: high Mg2+ state, higher = stronger signaling",fold induction,0.797

# For quick reference, copied from above (set 1):
Sequence,E-score
AGTCATAA,0.371
ACGGAGGA,-0.124
ATTAGCCA,0.112
